Measurements of several laboratories.
Each line is one published result; not all experiments were run side by side. Numbers after ± are the reported error.
Target: Cytochrome P450 2C19 (CYP2C19, Homo sapiens, UniProt P33261)
Chain of UniProt P33261 (whole entry, looked up): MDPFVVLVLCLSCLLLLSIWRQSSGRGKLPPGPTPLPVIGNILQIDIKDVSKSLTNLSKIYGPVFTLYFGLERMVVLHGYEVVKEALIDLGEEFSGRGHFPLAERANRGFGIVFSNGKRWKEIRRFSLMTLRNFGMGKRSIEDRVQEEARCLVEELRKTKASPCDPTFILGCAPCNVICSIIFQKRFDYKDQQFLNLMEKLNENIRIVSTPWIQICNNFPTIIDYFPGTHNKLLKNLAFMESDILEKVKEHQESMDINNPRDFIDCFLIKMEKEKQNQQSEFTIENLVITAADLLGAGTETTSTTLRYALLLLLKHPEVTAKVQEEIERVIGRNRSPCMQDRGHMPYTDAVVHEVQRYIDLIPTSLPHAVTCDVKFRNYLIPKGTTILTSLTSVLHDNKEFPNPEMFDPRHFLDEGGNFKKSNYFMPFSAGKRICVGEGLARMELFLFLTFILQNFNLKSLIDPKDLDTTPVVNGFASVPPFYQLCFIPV

CC(C)=CCc1c(O)cc2c(c1O)C(=O)C[C@@H](c1ccc(O)cc1)O2 — inhibition (10 µM, pH 7.4): 14.3 ± 0.1%
COc1ccc2[nH]c([S+]([O-])Cc3ncc(C)c(OC)c3C)nc2c1 (centres unmarked) — AUC(0-12 h) (refers to: 5-hydroxyomeprazole; human healthy subjects, plasma; oral, dose not given, alone, geometric mean, added: midazolam): 335 ng·h/mL
C[C@@H](c1ccc2nccn2c1)n1nnc2ncc(-c3cnn(C)c3)nc21 — time-dependent inhibition (human liver microsomes; 10 and 50 µM, 30 min preincubation, pH 7.4, added: ± NADPH): < 20%
COc1cc(O)c(CC=C(C)C)c2c1C(=O)CC(c1ccc(O)cc1)O2 (centres unmarked) — inhibition (enzyme activity, inhibitor; human liver microsomes; 1 µM, pH 7.4, added: (S)-mephenytoin): 51 ± 8.6%
N#C[C@H](C[C@@H]1CCCNC1=O)NC(=O)[C@H](CC1CC1)NC(=O)c1cc2cccc(Cl)c2[nH]1 — half-life (NADPH metabolic stability; 2 µM, pH 7.4, 37 °C, 100 pmol/mL enzyme): 10.5 min
CC(C)=CCc1c(O)cc(O)c2c1O[C@H](c1ccc(O)cc1)CC2=O — inhibition (enzyme activity, inhibitor; 10 µM, pH 7.4): 92.8 ± 5.5%
C=CC(=O)N(C)CCOc1c(N)ncnc1-c1cc(F)cc(NC(=O)c2ccc(C3CC3)cc2F)c1C — fraction unbound in microsomal incubation (recombinant enzyme incubation): 0.94
COc1cc(O)c(CC=C(C)C)c(O)c1C(=O)/C=C/c1ccc(O)cc1 — inhibition (enzyme activity, inhibitor; human liver microsomes; 1 µM, pH 7.4, added: (S)-mephenytoin): < 10%
COc1ccc2nc([S+]([O-])Cc3ncc(CO)c(OC)c3C)[nH]c2c1 (centres unmarked) — AUC(0-12 h) (human healthy subjects, plasma; oral, dose not given, alone, geometric mean, added: midazolam): 325 ng·h/mL
C=CC(=O)Nc1cc(Nc2nccc(-c3cn(C)c4ccccc34)n2)c(OCC(F)(F)F)nc1N(C)CCNC — intrinsic clearance (substrate depletion; recombinant human CYP; 1 µM): 0.36 µL/min/pmol
COc1ccc2[nH]c([S+]([O-])Cc3ncc(C)c(OC)c3C)nc2c1 (centres unmarked) — geometric LS mean ratio of Cmax (human, plasma; oral, 20 mg, Day 14, added: encorafenib at steady state; reference: Day -7): 1.01
OCc1ccc(-c2nn(Cc3ccccc3)c3ccccc23)o1 — half-life (substrate; recombinant human enzyme): 3.6 min
Cc1cccc(F)c1N1CCC(N2Cc3cn(CC(C)(F)F)nc3N(Cc3ccccc3C(F)(F)F)C2=O)CC1 — selectivity ratio (enzyme activity, inhibitor, Ki based, refers to: (S)-mephenytoin 4'-hydroxylation; reference: CYP2C8 Ki over target Ki): 1.6 fold
COc1ccc2nc([S+]([O-])Cc3ncc(CO)c(OC)c3C)[nH]c2c1 (centres unmarked) — AUC(0-t) (substrate; human, plasma; oral, 20 mg, day 14, cocktail with binimetinib and encorafenib): 195 ng·h/mL

Some of these lines once more:
COc1ccc2[nH]c([S+]([O-])Cc3ncc(C)c(OC)c3C)nc2c1 (centres unmarked) — geometric LS mean ratio of Cmax (human, plasma; oral, 20 mg, Day 14, added: encorafenib at steady state; reference: Day -7): 1.01
